Results of several laboratories.
Protocols differ between the studies behind these lines. pEC50, pIC50: −log10 of the molar value.
CFTR del508-508: Cystic fibrosis transmembrane conductance regulator (CFTR, Homo sapiens, UniProt P13569, del508-508)

Structure (SMILES)	target or system	test	test system	setting	how to read	endpoint	result
COc1ccc(C2(C(=O)N3CCC(Nc4nc5ccccc5c(=O)[nH]4)CC3)CC2)cc1	MRGPRD (Homo sapiens, UniProt Q8TDS7)	miniGq recruitment, agonist, BRET1	HEK293T	wild-type receptor		pEC50	6.62
Cl.[Cl][Ru-4]123([n+]4ccccc4-c4cc(-c5ccccc5)cc([n+]41)-c1cccc[n+]12)[n+]1ccc(-c2ccccc2)c2ccc4c(-c5ccccc5)cc[n+]3c4c21	DNA gyrase (gyrA/gyrB, Escherichia coli, UniProt P0AES4+P0AES6)	supercoiling inhibition				pEC50	4.42
CCOC(=O)c1c(S(=O)(=O)Nc2ccc(C(C)(C)C)cc2)c(-c2ccccc2)n(-c2ccccc2)c1C	CFTR del508-508	cell-based				pEC50	6.59
O=C(Cc1ccc(OCc2ccccc2)cc1)NC1(C(=O)O)CCN(C(=O)c2ccc(-c3cccc(Cl)c3)cc2)CC1	AGTR1 (Homo sapiens, UniProt P30556)	reporter gene, agonist, luciferase				pEC50	< 5.00
COc1cc(C2C(NC(=O)c3ccc(NC(=O)OC(C)(C)C)cc3)(C(=O)O)C(c3ccc(OC(=O)c4cccs4)c(OC)c3)C2(NC(=O)c2ccc(NC(=O)OC(C)(C)C)cc2)C(=O)O)ccc1OC(=O)c1cccs1 (stereo not shown)	GLP1R (Homo sapiens, UniProt P43220, R299A)	cAMP, agonist				pEC50	6.98
CNS(=O)(=O)Nc1nccc(Cc2c(C)c3ccc(Oc4ncccc4F)cc3oc2=O)c1F	MDA-MB-175-VII	cell viability, CellTiter-Glo		7 days		pIC50	6.80
CCOC(=O)c1c(S(=O)(=O)Nc2ccc(C(F)(F)F)cc2)c(-c2ccccc2)n(-c2ccccc2)c1C	CFTR del508-508	ion flux, activator				pEC50	6.47
O=C(O)CCC(=O)O	Sucnr1 (Mus musculus, UniProt Q99MT6)	inositol phosphate, agonist				pEC50	5.34
CNc1ncnc2c1ncn2C1OC(CO)C(O)C1O (stereo not shown)	ADORA3 (Homo sapiens, UniProt P0DMS8, M174Y)	G protein activation, agonist				pEC50	5.74
Nc1ncc(-c2cc(-c3cnn(CC(F)(F)F)c3)ncc2F)nc1C(=O)NC1CNCC(F)C1 (stereo not shown)	NEK9	KINOMEscan		1 µM	baseline: DMSO control	remaining binding	96%
Cc1nn(-c2cccc(N)c2)c(=O)c2cnc(Nc3ccc(N4CCNCC4)cc3)nc12	HIPK1 (Homo sapiens, UniProt Q86Z02)	enzyme activity, inhibitor				pIC50	< 5.00
CCOC(=O)c1c(S(=O)(=O)Nc2ccc([N+](=O)[O-])cc2)c(-c2ccccc2)n(-c2ccccc2)c1C	CFTR del508-508	plasma membrane density, corrector, PM-ELISA				pEC50	5.63
C=CC(=O)Nc1cccc(Cn2ncc3cnc(Nc4cnn(CCOC)c4)nc32)c1	LYN human	binding, KINOMEscan		100 nM	lower = stronger binding	percent of control	81%
Cc1ncsc1-c1ccc(C(C)NC(=O)C2CC(O)CN2C(=O)C(NC(=O)CCCCCCCCCCN2CCCC(Nc3ncc(Cl)c(Nc4ccccc4S(=O)(=O)C(C)C)n3)C2)C(C)(C)C)cc1 (stereo not shown)	22Rv1	RNA-seq, measured: SLC5A4-AS1		concentration not given	baseline: DMSO	log2 fold change	-1.26
Cc1cc(=O)[nH]c(-n2nc(-c3cccs3)cc2NC(=O)C2(c3ccc(Cl)cc3)CCCC2)n1	CFTR del508-508	ion flux, activator				pEC50	5.51
CC(C)Oc1cc(Cl)ccc1CNc1cc(-c2ccccc2)nc2ncnn12	GPR3 (Homo sapiens, UniProt P46089, L128A)	cAMP level, agonist		FLAG-6xHis tagged		pEC50	7.43
CSCC[C@H](NC(=O)[C@H](CC(C)C)NC(=O)CNC(=O)[C@H](Cc1ccccc1)NC(=O)[C@H](Cc1ccccc1)NC(=O)[C@@H](N)CCC(N)=O)C(N)=O	TACR1 (Homo sapiens, UniProt P25103, Y287H)	agonist		concentration not given		pEC50	6.30
CN1CCCNC(=O)c2cccc(c2)C(=O)NCCCN(C)CCCNc2cccc3c2C(=O)c2cccc(c2C3=O)NCCC1			mouse xenograft model	dose not given, day 0, group mean		body weight	25.6 g
CCN(CC)C(CO)c1cccc2c(C)c(C)oc12 (stereo not shown)	LPAR1 (Homo sapiens, UniProt Q92633, W271F)	Gi activation, agonist, NanoBiT G-protein dissociation	HEK293T	W271F mutant		pEC50	7.70
